Measured values pooled from the literature.
Each line is one published result; not all experiments were run side by side. Several values in a cell are separate wells, animals, samples, runs or records. ± gives the spread as reported.

`O=C(O)[C@H]1O[C@H](OP(=O)(O)OP(=O)(O)OC[C@H]2O[C@@H](n3ccc(=O)[nH]c3=O)[C@H](O)[C@@H]2O)[C@H](O)[C@@H](O)[C@@H]1O`: “log2 fold change” -0.206 (binding, MIDAS equilibrium dialysis LC-MS; A2AR-BRIL thermostabilized; concentration not given; baseline: no-protein control).
`O=C(O)CNC(=O)Cc1ccccc1` has a sarcomere length of 1.72 µm (ventricular cardiomyocytes, C57BL/6 mouse; dose not given, 0.756 s).
`Cc1ncc(COP(=O)(O)O)c(C=O)c1O` — result for “log2 fold change”: 0.573 (binding, MIDAS equilibrium dialysis LC-MS; A2AR-BRIL thermostabilized; concentration not given; baseline: no-protein control).
The inhibition of `CCN(CC)CCNC(=O)c1c(C)[nH]c(/C=C2\C(=O)Nc3ccc(F)cc32)c1C` is reported as 46% (CK1 (yeast); kinase activity, inhibitor; 0.3 µM).
`Cn1cnc(C[C@H](N)C(=O)O)c1` — result for “log2 fold change”: -0.103 (binding, MIDAS equilibrium dialysis LC-MS; A2AR-BRIL thermostabilized; concentration not given; baseline: no-protein control).
With `CCn1cc(-c2cc(Cn3ccnc3)cc3c2CCN([C@H](c2cc(OC)ccn2)C2CC2)C3=O)c(C(F)(F)F)n1` the EC50 was greater than 30000 nM (LMSU; cell growth; 120 h).
`NC(=O)c1cnc2[nH]ccc2c1N[C@@H]1[C@@H]2CC3C[C@H]1C[C@@](O)(C3)C2` gave a percent change of 0.23% (CD8+ naive T cells, flow cytometry; Japanese humans, peripheral blood; 20 mg single dose; baseline: baseline).
Under “log2 fold change”, `Cn1cc(-c2ccc(-c3cncc(Cl)c3N3CCC4(CCNC4=O)CC3)cc2)cn1` is recorded as 4.06 (COLO 205; gene expression, microarray, refers to: SAT1 (SSAT) mRNA; concentration not given, 2 h; baseline: untreated cells).
The EC50 of `CC(=O)N1CCC[C@H](C(=O)NCc2nc(-c3ccccc3)cs2)C1` is reported as 1300 ± 550 nM (Plasmodium falciparum; SYBR Green growth; asexual blood-stage parasites, 3D7; 72 h).
For `O=C1C[C@@H](C(=O)O)NC(=O)N1`, “log2 fold change” read -0.827 (binding, MIDAS equilibrium dialysis LC-MS; A2AR-BRIL thermostabilized; concentration not given; baseline: no-protein control).
`CCS(=O)(=O)c1nc(C2CC2)cc(C(F)(F)F)n1` — result for “cells with nuclear reporter”: 93.7% and 93.6% (transportin-1/2; FUS nuclear import, high content imaging; HeLa Kyoto reporter; 0.5 µM, 2 h).
`NC[C@@H](OCC(=O)N1CCC[C@H](C(=O)NCc2nc(-c3ccc(C(F)(F)F)cc3)cs2)C1)c1ccccc1` has an EC50 of 250 ± 76 nM (Plasmodium falciparum; SYBR Green growth; asexual blood-stage parasites, 3D7; 72 h).
`N[C@@H](CCCCN[C@@H](CCC(=O)O)C(=O)O)C(=O)O` — result for “log2 fold change”: -0.254 (binding, MIDAS equilibrium dialysis LC-MS; A2AR-BRIL thermostabilized; concentration not given; baseline: no-protein control).
`[Ca+2]`: “desensitization time constant” 5.54 s and 1.6 s and 16 s and 7.55 s and 27.2 s (human TRPA1; ion current, two-electrode voltage clamp; Xenopus oocytes; -80 mV, added: AITC).
`O=C(O)c1cc(O)ccc1O` — result for “log2 fold change”: -0.0954 (binding, MIDAS equilibrium dialysis LC-MS; A2AR-BRIL thermostabilized; concentration not given; baseline: no-protein control).
`CCn1cc(-c2cc(Cn3ccoc3=N)cc3c2CCN([C@@H](C)c2cc(OC)ccn2)C3=O)c(C(F)(F)F)n1` gave an EC50 of 13.1 nM (HEL 92.1.7; cell growth; 120 h).
`CC(C)n1ncc2c(C(=O)NCC3(C)CNC3)cc(C3CC3)nc21` has a cell protection of 2.26% and 2% (coxsackievirus A16; RD; 0.05 µM).
For `N#Cc1ccc2c(c1)[C@H]1CCCN(C(=O)c3ccc4[nH]cnc4c3)[C@H]1C2`, “fasting plasma insulin” read 14.3 mU/L (T2DM patients with overweight or obesity, plasma; oral, 40 mg, day 15 (360 h), multiple dosing, mean).
For `CSc1cc(Oc2ccnc3[nH]c(=O)cnc23)ccc1NC(=O)Nc1cc(C(C)(C)C)nn1-c1ccccc1`, the phospho/total ratio was 0.41 (patient-derived cell line; RPPA, refers to: GSK-3β pSer9; human; 1 µM, 4 h; baseline: DMSO).
`Nc1nc(-c2ccccc2)nc2[nH]nc(Nc3ccc(C(F)(F)F)cc3)c12` has a clinical score of 0 (coxsackievirus B3; NMRI mouse, CVB3 chronic myocarditis; oral, 100 mg/kg twice daily, day 1-7, day 0; direction not given).
With `COCC(=O)N1CCC[C@H](C(=O)NCc2nc(-c3ccc(S(C)(=O)=O)cc3)cs2)C1` the EC50 was 2300 ± 490 nM (Plasmodium falciparum; SYBR Green growth; asexual blood-stage parasites, 3D7; 72 h).
Under “log2 fold change”, `Nc1ccn([C@@H]2O[C@H](COP(=O)(O)OP(=O)(O)OP(=O)(O)O)[C@@H](O)[C@H]2O)c(=O)n1` is recorded as -0.494 (binding, MIDAS equilibrium dialysis LC-MS; A2AR-BRIL thermostabilized; concentration not given; baseline: no-protein control).
For `CC[S+]([O-])c1nc(-c2ccccc2)cc(C(F)(F)F)n1` (stereo not drawn), “cells with nuclear reporter” read 95.9% and 94.5% (transportin-1/2; FUS nuclear import, high content imaging; HeLa Kyoto reporter; 0.05 µM, 2 h).
`COc1cnc2cccc(N3CCc4c(cc(Cn5ccnc5C)cc4-c4cn(C)nc4C(F)(F)F)C3=O)c2c1` gave an EC50 of greater than 30000 nM (RERF-LC-MS; cell growth, inhibitor; 120 h).
`CC(=O)CC(=O)CCC(=O)O` — result for “log2 fold change”: -0.571 (binding, MIDAS equilibrium dialysis LC-MS; A2AR-BRIL thermostabilized; concentration not given; baseline: no-protein control).
For `C[C@H](Oc1ccc(Br)cc1-c1ccon1)C(=O)O`, “difference from placebo” read -4.13% (first response peak; human, tibialis anterior muscle; 800 mg, 15 Hz, single ascending dose).
`OC(CCN1CCCCC1)(c1ccccc1)C1CC2C=CC1C2` (stereo not drawn) — result for “EEG power, alpha, Fz-Cz”: 7.1 µV² (resting-state EEG; healthy elderly humans; oral, 2 mg, eyes closed, LS mean).

Repeated from above:
For `CSc1cc(Oc2ccnc3[nH]c(=O)cnc23)ccc1NC(=O)Nc1cc(C(C)(C)C)nn1-c1ccccc1`, the phospho/total ratio was 0.41 (patient-derived cell line; RPPA, refers to: GSK-3β pSer9; human; 1 µM, 4 h; baseline: DMSO).
`Nc1nc(-c2ccccc2)nc2[nH]nc(Nc3ccc(C(F)(F)F)cc3)c12` has a clinical score of 0 (coxsackievirus B3; NMRI mouse, CVB3 chronic myocarditis; oral, 100 mg/kg twice daily, day 1-7, day 0; direction not given).
With `COCC(=O)N1CCC[C@H](C(=O)NCc2nc(-c3ccc(S(C)(=O)=O)cc3)cs2)C1` the EC50 was 2300 ± 490 nM (Plasmodium falciparum; SYBR Green growth; asexual blood-stage parasites, 3D7; 72 h).
